Assay results collected from several papers.
Each line is one published result; not all experiments were run side by side. “And” joins repeats or separate records; there may be more than shown. ± gives the spread as reported.
Tumor necrosis factor receptor superfamily member 9/Nectin-4: Tumor necrosis factor receptor superfamily member 9/Nectin-4 (Homo sapiens, UniProt Q07011+Q96NY8)
UniProt Q96NY8, sequence (whole entry, looked up): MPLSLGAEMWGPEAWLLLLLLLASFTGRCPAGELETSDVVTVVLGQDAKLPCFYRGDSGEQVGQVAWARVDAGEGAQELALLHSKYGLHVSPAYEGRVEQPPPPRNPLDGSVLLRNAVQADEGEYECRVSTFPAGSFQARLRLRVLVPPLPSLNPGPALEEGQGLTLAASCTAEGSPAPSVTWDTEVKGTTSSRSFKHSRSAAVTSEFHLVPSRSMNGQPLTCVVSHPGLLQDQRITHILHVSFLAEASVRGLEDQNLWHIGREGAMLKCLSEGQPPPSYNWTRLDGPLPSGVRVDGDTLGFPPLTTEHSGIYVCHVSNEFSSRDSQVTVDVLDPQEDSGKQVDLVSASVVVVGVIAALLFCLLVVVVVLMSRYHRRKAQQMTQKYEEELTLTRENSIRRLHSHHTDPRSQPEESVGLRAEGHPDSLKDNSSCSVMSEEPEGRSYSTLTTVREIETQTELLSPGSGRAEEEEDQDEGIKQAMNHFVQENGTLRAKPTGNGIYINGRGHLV
UniProt Q07011, sequence (whole entry, looked up): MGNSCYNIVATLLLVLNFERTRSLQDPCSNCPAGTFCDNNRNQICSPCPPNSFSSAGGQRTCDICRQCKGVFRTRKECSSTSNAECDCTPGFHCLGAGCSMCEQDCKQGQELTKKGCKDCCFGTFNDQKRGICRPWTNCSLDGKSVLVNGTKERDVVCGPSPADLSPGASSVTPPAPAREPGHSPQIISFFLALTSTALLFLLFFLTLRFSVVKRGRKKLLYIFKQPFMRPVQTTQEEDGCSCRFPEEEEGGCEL
CYP3A4: Cytochrome P450 3A4 (CYP3A4, Homo sapiens, UniProt P08684)
UniProt P08684, sequence (whole entry, looked up): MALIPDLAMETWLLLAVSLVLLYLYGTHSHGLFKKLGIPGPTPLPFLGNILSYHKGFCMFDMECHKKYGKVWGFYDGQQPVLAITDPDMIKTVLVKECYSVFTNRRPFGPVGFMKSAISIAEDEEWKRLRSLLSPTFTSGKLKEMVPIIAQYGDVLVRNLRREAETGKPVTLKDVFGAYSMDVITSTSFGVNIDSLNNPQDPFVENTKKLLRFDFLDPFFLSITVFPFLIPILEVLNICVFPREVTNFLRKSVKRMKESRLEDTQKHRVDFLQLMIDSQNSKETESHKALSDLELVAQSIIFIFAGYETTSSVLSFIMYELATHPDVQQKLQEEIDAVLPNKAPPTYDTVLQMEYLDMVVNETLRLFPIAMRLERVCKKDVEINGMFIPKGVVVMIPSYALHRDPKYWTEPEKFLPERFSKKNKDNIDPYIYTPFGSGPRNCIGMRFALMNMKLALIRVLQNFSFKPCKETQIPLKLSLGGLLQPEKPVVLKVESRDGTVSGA
UniProt Q16853, sequence (whole entry, looked up): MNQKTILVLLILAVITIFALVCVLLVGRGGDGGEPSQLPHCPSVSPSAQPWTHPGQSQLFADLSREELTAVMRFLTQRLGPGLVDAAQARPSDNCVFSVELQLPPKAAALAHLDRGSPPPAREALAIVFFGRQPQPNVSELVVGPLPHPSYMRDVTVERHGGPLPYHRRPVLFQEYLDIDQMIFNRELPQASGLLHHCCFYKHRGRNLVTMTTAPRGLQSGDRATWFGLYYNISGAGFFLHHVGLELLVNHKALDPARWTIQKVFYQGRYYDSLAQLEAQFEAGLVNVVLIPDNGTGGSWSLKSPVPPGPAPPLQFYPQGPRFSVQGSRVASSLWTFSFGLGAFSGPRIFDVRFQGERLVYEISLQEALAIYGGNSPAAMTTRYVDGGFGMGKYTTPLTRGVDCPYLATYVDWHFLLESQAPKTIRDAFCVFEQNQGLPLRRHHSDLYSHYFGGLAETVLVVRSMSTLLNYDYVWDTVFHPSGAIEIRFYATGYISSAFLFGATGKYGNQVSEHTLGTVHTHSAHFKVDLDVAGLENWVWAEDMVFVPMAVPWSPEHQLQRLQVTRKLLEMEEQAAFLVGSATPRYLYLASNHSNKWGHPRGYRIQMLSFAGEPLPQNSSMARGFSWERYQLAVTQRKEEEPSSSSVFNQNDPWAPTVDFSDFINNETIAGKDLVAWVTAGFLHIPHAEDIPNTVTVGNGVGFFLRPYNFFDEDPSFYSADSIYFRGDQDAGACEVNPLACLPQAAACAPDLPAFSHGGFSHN
UniProt P05177, sequence (whole entry, looked up): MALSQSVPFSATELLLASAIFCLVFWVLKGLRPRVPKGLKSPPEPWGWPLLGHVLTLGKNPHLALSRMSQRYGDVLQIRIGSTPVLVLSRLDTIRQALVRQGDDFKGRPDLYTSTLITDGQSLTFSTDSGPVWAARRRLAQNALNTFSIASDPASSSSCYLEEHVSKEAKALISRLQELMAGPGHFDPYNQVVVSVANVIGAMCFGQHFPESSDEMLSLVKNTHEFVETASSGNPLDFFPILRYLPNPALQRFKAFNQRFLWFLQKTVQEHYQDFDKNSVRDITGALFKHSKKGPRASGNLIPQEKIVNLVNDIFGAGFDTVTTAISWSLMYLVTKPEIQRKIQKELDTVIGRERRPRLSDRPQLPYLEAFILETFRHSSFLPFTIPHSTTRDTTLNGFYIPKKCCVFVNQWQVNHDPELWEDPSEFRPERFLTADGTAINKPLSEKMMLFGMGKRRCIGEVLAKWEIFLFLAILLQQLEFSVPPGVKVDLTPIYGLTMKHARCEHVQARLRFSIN
UniProt Q12809, sequence (whole entry, looked up): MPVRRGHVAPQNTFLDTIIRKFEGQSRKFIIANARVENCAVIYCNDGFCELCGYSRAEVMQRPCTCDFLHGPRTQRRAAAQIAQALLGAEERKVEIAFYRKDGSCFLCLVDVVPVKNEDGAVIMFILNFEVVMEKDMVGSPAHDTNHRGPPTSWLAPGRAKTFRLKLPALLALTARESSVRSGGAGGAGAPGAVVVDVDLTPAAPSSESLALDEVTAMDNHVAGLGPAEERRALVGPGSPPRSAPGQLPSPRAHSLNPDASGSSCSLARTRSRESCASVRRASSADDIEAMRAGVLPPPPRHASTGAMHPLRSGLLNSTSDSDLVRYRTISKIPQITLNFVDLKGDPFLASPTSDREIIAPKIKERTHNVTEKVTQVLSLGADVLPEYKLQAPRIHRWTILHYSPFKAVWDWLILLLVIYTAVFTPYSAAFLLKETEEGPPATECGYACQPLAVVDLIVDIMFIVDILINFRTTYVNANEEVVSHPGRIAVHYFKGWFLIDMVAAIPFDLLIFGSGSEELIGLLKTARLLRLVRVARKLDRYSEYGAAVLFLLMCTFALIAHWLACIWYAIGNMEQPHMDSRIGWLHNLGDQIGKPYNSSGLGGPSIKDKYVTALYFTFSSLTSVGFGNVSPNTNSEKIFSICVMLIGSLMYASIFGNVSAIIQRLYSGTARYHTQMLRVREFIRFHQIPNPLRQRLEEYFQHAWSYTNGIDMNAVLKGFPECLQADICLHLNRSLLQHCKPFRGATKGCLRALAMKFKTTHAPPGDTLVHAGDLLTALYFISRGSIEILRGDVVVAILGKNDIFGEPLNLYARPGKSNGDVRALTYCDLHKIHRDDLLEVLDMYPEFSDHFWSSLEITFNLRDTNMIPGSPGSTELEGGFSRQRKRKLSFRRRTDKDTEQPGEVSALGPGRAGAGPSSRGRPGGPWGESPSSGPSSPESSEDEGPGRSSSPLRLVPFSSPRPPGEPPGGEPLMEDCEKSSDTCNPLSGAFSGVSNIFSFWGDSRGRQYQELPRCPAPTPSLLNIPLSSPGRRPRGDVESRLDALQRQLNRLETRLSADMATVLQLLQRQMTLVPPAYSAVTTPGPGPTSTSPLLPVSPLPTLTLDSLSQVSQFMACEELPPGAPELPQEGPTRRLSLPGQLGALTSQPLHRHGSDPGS
UniProt P0DMM9, sequence (whole entry, looked up): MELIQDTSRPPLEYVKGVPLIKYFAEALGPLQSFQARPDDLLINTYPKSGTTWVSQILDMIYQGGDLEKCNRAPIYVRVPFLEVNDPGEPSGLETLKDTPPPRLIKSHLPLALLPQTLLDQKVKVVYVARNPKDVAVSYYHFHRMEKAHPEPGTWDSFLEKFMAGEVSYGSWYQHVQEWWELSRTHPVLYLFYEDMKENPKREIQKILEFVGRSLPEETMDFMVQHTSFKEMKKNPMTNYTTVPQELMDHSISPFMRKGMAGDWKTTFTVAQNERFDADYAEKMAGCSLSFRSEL

SMILES | target | assay | system | conditions | scale | measurement | result
C=CC(=O)N1C[C@H](Nc2ncnc3[nH]ccc23)CC[C@@H]1C | CYP | substrate | human, plasma | oral, single dose, together with: rifampicin multiple doses once daily |  | AUC(0-t) | 260 ng·h/mL
CCCC[C@@H]1NC(=O)[C@H](Cc2ccc(O)cc2)NC(=O)[C@@H]2CCCN2C(=O)[C@H](CCC(=O)O)NC(=O)[C@H](C)NC(=O)[C@H](Cc2ccccc2)NC(=O)[C@@H]2CSCCC(=O)N3CN(CN(C3)C(=O)CCSC[C@H](NC(C)=O)C(=O)N[C@@H](CC(C)(C)C)C(=O)N3CCC[C@H]3C(=O)N[C@@H](CCC(=O)O)C(=O)N[C@H](CCCCNC(=O)CCc3cn(CCOCCOCCOCCN(CCOCCOCCOCCC(=O)N[C@H]4CSCCC(=O)N5CN6CN(C5)C(=O)CCSC[C@H](NC(=O)[C@@H](CC(=O)O)NC(=O)[C@H](Cc5cccc7ccccc57)NC(=O)[C@@H]5CCCN5C4=O)C(=O)N[C@@H](CCSC)C(=O)N[C@@H](CCCCNC(=N)N)C(=O)N[C@@H](CC(=O)O)C(=O)N[C@@H](Cc4c[nH]c5ccccc45)C(=O)N[C@@H](CO)C(=O)N[C@@H]([C@@H](C)O)C(=O)N4CCC[C@H]4C(=O)N4C[C@H](O)C[C@H]4C(=O)N[C@@H](Cc4c[nH]c5ccccc45)C(=O)N[C@H](C(N)=O)CSCCC6=O)CCOCCOCCOCCn4cc(CCC(=O)NCCCC[C@H]5NC(=O)[C@H](CCC(=O)O)NC(=O)[C@@H]6CCCN6C(=O)[C@H](CC(C)(C)C)NC(=O)[C@@H](NC(C)=O)CSCCC(=O)N6CN7CN(C6)C(=O)CCSC[C@H](NC(=O)[C@H](Cc6ccc(O)cc6)NC(=O)[C@@H]6CCCN6C5=O)C(=O)N[C@@H](Cc5ccccc5)C(=O)N[C@@H](C)C(=O)N[C@@H](CCC(=O)O)C(=O)N5CCC[C@H]5C(=O)N[C@@H](Cc5ccc(O)cc5)C(=O)N[C@@H](CCCC)C(=O)N[C@H](C(N)=O)CSCCC7=O)nn4)nn3)C(=O)N3CCC[C@H]3C(=O)N[C@@H](Cc3ccc(O)cc3)C(=O)N2)C(=O)CCSC[C@@H](C(N)=O)NC1=O | Tumor necrosis factor receptor superfamily member 9/Nectin-4 | reporter gene, agonist, luciferase reporter | CD137 Jurkat reporter with HT-1376 | 6 h, geometric mean | relative to: wells without compound | Emax | 11 fold
NCc1cc2c(cc1F)C(=O)N(C1CCC(=O)NC1=O)C2 (stereo not shown) | AOC3 (Homo sapiens, UniProt Q16853) | substrate, LC-MS/MS | cirrhotic human liver lysate | 125.00 µM, 60 min, pH 7.4 |  | concentration | 12500 ng/mL and 14700 ng/mL
CCCC[C@@H]1NC(=O)[C@H](Cc2ccc(O)cc2)NC(=O)[C@@H]2CCCN2C(=O)[C@H](CC(=O)O)NC(=O)[C@H](C)NC(=O)[C@H](Cc2ccccc2)NC(=O)[C@@H]2CSCCC(=O)N3CN(CN(C3)C(=O)CCSC[C@@H](C(=O)N[C@@H](C)C(N)=O)NC1=O)C(=O)CCSC[C@H](NC(C)=O)C(=O)N[C@@H](CC(C)(C)C)C(=O)N1CCC[C@H]1C(=O)N[C@@H](CCCCNC(=O)CCc1cn(CCOCCOCCOCCOCCOCCC(=O)N[C@H]3CSCCC(=O)N4CN5CN(C4)C(=O)CCSC[C@H](NC(=O)[C@@H](CC(=O)O)NC(=O)[C@H](Cc4cccc6ccccc46)NC(=O)[C@@H]4CCCN4C3=O)C(=O)N[C@@H](CCSC)C(=O)N[C@@H](CCCCNC(=N)N)C(=O)N[C@@H](CC(=O)O)C(=O)N[C@@H](Cc3c[nH]c4ccccc34)C(=O)N[C@@H](CO)C(=O)N[C@@H]([C@@H](C)O)C(=O)N3CCC[C@H]3C(=O)N3C[C@H](O)C[C@H]3C(=O)N[C@@H](Cc3c[nH]c4ccccc34)C(=O)N[C@H](C(N)=O)CSCCC5=O)nn1)C(=O)N[C@H](C)C(=O)N1CCC[C@H]1C(=O)N[C@@H](Cc1ccc(O)cc1)C(=O)N2 | Tumor necrosis factor receptor superfamily member 9/Nectin-4 | reporter gene, agonist, luciferase reporter | CD137 Jurkat reporter with HT-1376 | 6 h, geometric mean | relative to: wells without compound | Emax | 37 fold
COc1ccc(F)cc1C(=O)NCc1ccc(-c2nn([C@@H](C)C(F)(F)F)c(N)c2C(N)=O)cc1 | CYP3A4 |  | human, both sexes, plasma | oral, 200 mg, single dose, together with: itraconazole |  | Tmax | 3.5 h
Cc1oc2ccccc2c1Cc1cc(I)c(OCC(=O)O)c(I)c1 | KCNH2 (Homo sapiens, UniProt Q12809) | current activation, whole-cell patch clamp | HEK293 expressing hERG1 | concentration not given, 4 mM K+, -20 mV |  | Hill coefficient | 1.1
N#C[C@H](C[C@@H]1CCCNC1=O)NC(=O)[C@H](CC1CC1)NC(=O)c1cc2cccc(Cl)c2[nH]1 | Cytochrome P450 1A2 (CYP1A2, Homo sapiens, UniProt P05177) | NADPH metabolic stability |  | 2 µM, pH 7.4, 37 °C, 100 pmol/mL enzyme |  | half-life | > 2.13 h
COc1cc(O)c(CC=C(C)C)c2c1C(=O)CC(c1ccc(O)cc1)O2 (stereo not shown) | CYP2B6 (human) | enzyme activity, inhibitor | human liver microsomes | 1 µM, pH 7.4, together with: bupropion |  | inhibition | < 10%
COc1ccc(Cl)cc1C(=O)NCCc1ccc(S(=O)(=O)NC(=O)NC2CCCCC2)cc1 | human serum albumin | binding |  |  |  | log K | 1.69
CCC(=O)NCC[C@@H]1CCc2cc(O)c3c(c21)CCO3 | SULT1A3 (Homo sapiens, UniProt P0DMM9) | substrate, sulfation, purified enzyme |  | 10 µM, 10 min, pH 7.0, 37 °C |  | specific activity | 0.17 ± 0.04 nmol/min/mg
CCCC[C@@H]1NC(=O)[C@H](Cc2ccc(O)cc2)NC(=O)[C@@H]2CCCN2C(=O)[C@H](CC(=O)O)NC(=O)[C@H](C)NC(=O)[C@H](Cc2ccccc2)NC(=O)[C@@H]2CSCCC(=O)N3CN(CN(C3)C(=O)CCSC[C@@H](C(=O)N[C@@H](C)C(N)=O)NC1=O)C(=O)CCSC[C@H](NC(C)=O)C(=O)N[C@@H](CC(C)(C)C)C(=O)N1CCC[C@H]1C(=O)N[C@@H](CCC(=O)O)C(=O)N[C@H](CCCCNC(=O)CCc1cn(CCOCCOCCOCCOCCOCCOCCOCCOCCOCCOCCNC(=O)c3cc(C(=O)NCCOCCOCCOCCOCCOCCOCCOCCOCCOCCOCCn4cc(CCC(=O)NCCCC[C@H]5NC(=O)[C@H](CCC(=O)O)NC(=O)[C@@H]6CCCN6C(=O)[C@H](CC(C)(C)C)NC(=O)[C@@H](NC(C)=O)CSCCC(=O)N6CN7CN(C6)C(=O)CCSC[C@H](NC(=O)[C@H](Cc6ccc(O)cc6)NC(=O)[C@@H]6CCCN6C5=O)C(=O)N[C@@H](Cc5ccccc5)C(=O)N[C@@H](C)C(=O)N[C@@H](CC(=O)O)C(=O)N5CCC[C@H]5C(=O)N[C@@H](Cc5ccc(O)cc5)C(=O)N[C@@H](CCCC)C(=O)N[C@H](C(=O)N[C@@H](C)C(N)=O)CSCCC7=O)nn4)cc(C(=O)NCCOCCOCCOCCOCCOCCOCCOCCOCCOCCOCCn4cc(CCC(=O)N[C@H]5CSCCC(=O)N6CN7CN(C6)C(=O)CCSC[C@H](NC(=O)[C@@H](CC(=O)O)NC(=O)[C@H](Cc6cccc8ccccc68)NC(=O)[C@@H]6CCCN6C5=O)C(=O)N[C@@H](CCSC)C(=O)N[C@@H](CCCCNC(=N)N)C(=O)N[C@@H](CC(=O)O)C(=O)N[C@@H](Cc5c[nH]c6ccccc56)C(=O)N[C@@H](CO)C(=O)N[C@@H]([C@@H](C)O)C(=O)N5CCC[C@H]5C(=O)N5C[C@H](O)C[C@H]5C(=O)N[C@@H](Cc5c[nH]c6ccccc56)C(=O)N[C@H](C(N)=O)CSCCC7=O)nn4)c3)nn1)C(=O)N1CCC[C@H]1C(=O)N[C@@H](Cc1ccc(O)cc1)C(=O)N2 | Tumor necrosis factor receptor superfamily member 9/Nectin-4 | reporter gene, agonist, luciferase reporter | CD137 Jurkat reporter with HT-1376 | 6 h, geometric mean | relative to: wells without compound | Emax | 64 fold
O=C(O)CN1Cc2cccc(n2)CN(CC(=O)O)Cc2cccc(n2)C1 | Mn2+ | potentiometric titration | 0.16 M NaCl | 25 °C |  | log stability constant, hydroxo complex | 10.2
CCCC[C@@H]1NC(=O)[C@H](Cc2ccc(O)cc2)NC(=O)[C@@H]2CCCN2C(=O)[C@H](CC(=O)O)NC(=O)[C@H](C)NC(=O)[C@H](Cc2ccccc2)NC(=O)[C@@H]2CSCCC(=O)N3CN(CN(C3)C(=O)CCSC[C@@H](C(=O)N[C@@H](CNC(=O)Cn3cc(CCC(=O)NCCC(=O)N(C)CC(=O)N(C)CC(=O)N(C)CC(=O)N(C)CC(=O)N(C)CC(=O)N(C)CC(=O)N(C)CC(=O)N(C)CC(=O)N(C)CC(=O)N(C)CC(=O)N[C@H]4CSCCC(=O)N5CN6CN(C5)C(=O)CCSC[C@H](NC(=O)[C@@H](CC(=O)O)NC(=O)[C@H](Cc5cccc7ccccc57)NC(=O)[C@@H]5CCCN5C4=O)C(=O)N[C@@H](CCSC)C(=O)N[C@@H](CCCCNC(=N)N)C(=O)N[C@@H](CC(=O)O)C(=O)N[C@@H](Cc4c[nH]c5ccccc45)C(=O)N[C@@H](CO)C(=O)N[C@@H]([C@@H](C)O)C(=O)N4CCC[C@H]4C(=O)N4C[C@H](O)C[C@H]4C(=O)N[C@@H](Cc4c[nH]c5ccccc45)C(=O)N[C@H](C(N)=O)CSCCC6=O)nn3)C(N)=O)NC1=O)C(=O)CCSC[C@H](NC(C)=O)C(=O)N[C@@H](CC(C)(C)C)C(=O)N1CCC[C@H]1C(=O)N[C@@H](CCC(=O)O)C(=O)N[C@H](C)C(=O)N1CCC[C@H]1C(=O)N[C@@H](Cc1ccc(O)cc1)C(=O)N2 | Tumor necrosis factor receptor superfamily member 9/Nectin-4 | reporter gene, agonist, luciferase reporter | CD137 Jurkat reporter with HT-1376 | 6 h, geometric mean | relative to: wells without compound | Emax | 42 fold
C[C@H]1CN(C2COC2)CCN1c1ccc(Nc2cc(-c3ccnc(N4CCn5c(cc6c5CC(C)(C)C6)C4=O)c3CO)cn(C)c2=O)nc1 | human CYP2C9 |  | human liver microsomes | 1 µM, 60 min, pH 7.4, together with: sulfaphenazole 10 µM, NADPH | relative to: 0 min | remaining compound | 55.5 ± 4.1%
CCCN(CCC)S(=O)(=O)c1ccc(C(=O)O)cc1 | ABCC2 (Homo sapiens, UniProt Q92887) | ceftiofur transport | Caco-2 | 100 µM, together with: ceftiofur 200 µg/mL | relative to: control | Papp | increased
CC[C@H]1[C@@H](O)[C@@H]2[C@H](CC[C@]3(C)[C@@H]([C@H](C)CCNC(=O)NS(=O)(=O)c4ccc(C(C)(C)C)cc4)CC[C@@H]23)[C@@]2(C)CC[C@@H](O)C[C@@H]12 | CYP3A4 | substrate | human, plasma | 10 mg, alone, study day 1 |  | AUC(0-t) geometric mean | 356 ng·h/mL

Some of these lines once more:
SMILES | target | assay | system | conditions | scale | measurement | result
CCCC[C@@H]1NC(=O)[C@H](Cc2ccc(O)cc2)NC(=O)[C@@H]2CCCN2C(=O)[C@H](CC(=O)O)NC(=O)[C@H](C)NC(=O)[C@H](Cc2ccccc2)NC(=O)[C@@H]2CSCCC(=O)N3CN(CN(C3)C(=O)CCSC[C@@H](C(=O)N[C@@H](C)C(N)=O)NC1=O)C(=O)CCSC[C@H](NC(C)=O)C(=O)N[C@@H](CC(C)(C)C)C(=O)N1CCC[C@H]1C(=O)N[C@@H](CCCCNC(=O)CCc1cn(CCOCCOCCOCCOCCOCCC(=O)N[C@H]3CSCCC(=O)N4CN5CN(C4)C(=O)CCSC[C@H](NC(=O)[C@@H](CC(=O)O)NC(=O)[C@H](Cc4cccc6ccccc46)NC(=O)[C@@H]4CCCN4C3=O)C(=O)N[C@@H](CCSC)C(=O)N[C@@H](CCCCNC(=N)N)C(=O)N[C@@H](CC(=O)O)C(=O)N[C@@H](Cc3c[nH]c4ccccc34)C(=O)N[C@@H](CO)C(=O)N[C@@H]([C@@H](C)O)C(=O)N3CCC[C@H]3C(=O)N3C[C@H](O)C[C@H]3C(=O)N[C@@H](Cc3c[nH]c4ccccc34)C(=O)N[C@H](C(N)=O)CSCCC5=O)nn1)C(=O)N[C@H](C)C(=O)N1CCC[C@H]1C(=O)N[C@@H](Cc1ccc(O)cc1)C(=O)N2 | Tumor necrosis factor receptor superfamily member 9/Nectin-4 | reporter gene, agonist, luciferase reporter | CD137 Jurkat reporter with HT-1376 | 6 h, geometric mean | relative to: wells without compound | Emax | 37 fold
COc1ccc(F)cc1C(=O)NCc1ccc(-c2nn([C@@H](C)C(F)(F)F)c(N)c2C(N)=O)cc1 | CYP3A4 |  | human, both sexes, plasma | oral, 200 mg, single dose, together with: itraconazole |  | Tmax | 3.5 h
